Assay results collected from several papers.
Lines come from different studies, so protocols differ. ± marks the error that the study gave.
Chain of UniProt P11509 (whole entry, looked up): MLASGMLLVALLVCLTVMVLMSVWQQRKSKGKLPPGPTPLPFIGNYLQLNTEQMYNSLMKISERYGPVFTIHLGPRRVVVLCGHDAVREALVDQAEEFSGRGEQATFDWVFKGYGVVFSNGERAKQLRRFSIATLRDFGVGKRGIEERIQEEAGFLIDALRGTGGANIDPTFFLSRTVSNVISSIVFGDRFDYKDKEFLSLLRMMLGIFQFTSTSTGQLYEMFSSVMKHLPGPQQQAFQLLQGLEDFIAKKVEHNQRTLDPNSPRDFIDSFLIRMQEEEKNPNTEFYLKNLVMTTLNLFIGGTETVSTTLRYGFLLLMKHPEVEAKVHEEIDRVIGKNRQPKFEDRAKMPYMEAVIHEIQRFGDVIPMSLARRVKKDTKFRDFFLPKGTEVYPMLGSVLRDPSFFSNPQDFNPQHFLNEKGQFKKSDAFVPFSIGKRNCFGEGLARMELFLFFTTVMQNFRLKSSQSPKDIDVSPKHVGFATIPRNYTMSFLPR

| Compound | target or system | assay | test system | setting | scale | quantity | value |
| --- | --- | --- | --- | --- | --- | --- | --- |
| CN1CC[C@@H](c2c(O)cc(O)c3c(=O)cc(-c4ccc(C(F)(F)F)cc4Cl)oc23)[C@@H]1CO | – | item: rectal abscess | B-cell malignancies or AML | oral, 100 mg, grade 3 to 4, continuous dosing | – | patients with adverse event | 0% |
| O=C1c2c(O)c(=O)ccn2N([C@@H]2c3ccccc3SCc3c2ccc(F)c3F)[C@@H]2COCCN12 | – | – | BALB/c mouse | subcutaneous, 1 mg/kg q12h | – | Cmax | 62.1 ng/mL |
| CO[C@H]1C[C@@H]2CC[C@@H](C)[C@@](O)(O2)C(=O)C(=O)N2CCCC[C@H]2C(=O)O[C@H]([C@H](C)C[C@@H]2CC[C@@H](OC(=O)NCCOCCOCCOCCOCCOCCOCCOCCOCCC(=O)N3CCc4cc(Cn5nc(-c6ccc7oc(N)nc7c6)c6c(N)ncnc65)ccc4C3)[C@H](OC)C2)C[C@@H](O)[C@H](C)/C=C(\C)[C@@H](O)[C@@H](OC)C(=O)[C@H](C)C[C@H](C)/C=C/C=C/C=C/1C | – | item: gastric haemorrhage leading to dose reduction | patients with advanced solid tumours | intravenous, 1.6 mg/3 mg, grade ≥3, weekly | – | patients with AE | 0% |
| CC(C)(C)NC(=O)[C@@H]1C[C@@H]2CCCC[C@@H]2CN1C[C@@H](O)[C@H](Cc1ccccc1)NC(=O)[C@H](CC(N)=O)NC(=O)c1ccc2ccccc2n1 | African green monkey cells | – | – | 5 days | – | CC50 | 18.2 µM |
| COc1cc2c(Oc3ccc4[nH]c(C)cc4c3F)ccnc2cc1OCC1(N)CC1 | – | – | paediatric recurrent refractory sarcoma | concentration not given, whole group | – | grade 1 or 2 Hematuria | 17.6% |
| CCC(=O)c1ccc2c(c1)N(CCCN1CCN(CCO)CC1)c1ccccc1S2 | African green monkey cells | – | – | 5 days | – | CC50 | 6.31 µM |
| Cc1cc(C(=O)NC(C)(C)COc2cccc3c2C(N)=NS(=O)(=O)N3)cc(C)n1 | Salmonella typhimurium | Ames test, initial | TA1537 | 500 µg/plate | relative to: solvent control | revertant ratio | 1.2 |
| C[C@]1(CO)Cc2ncn(-c3ccc(C#N)c(Cl)c3)c2C(=O)O1 | – | – | human, plasma | 3 mg, first dose fasted | – | AUC(0-inf) | 0.716 µM·h |
| CC(C)CC(=O)OC[C@H]1O[C@@](C#N)(c2ccc3c(N)ncnn23)[C@H](O)[C@@H]1O | Cytochrome P450 2A6 (CYP2A6, Homo sapiens, UniProt P11509) | metabolic stability | recombinant enzyme | 1 µM, 30 min | – | remaining compound | 99.4 ± 1.25% |

Excerpt of the above:
| Compound | target or system | assay | test system | setting | scale | quantity | value |
| --- | --- | --- | --- | --- | --- | --- | --- |
| C[C@]1(CO)Cc2ncn(-c3ccc(C#N)c(Cl)c3)c2C(=O)O1 | – | – | human, plasma | 3 mg, first dose fasted | – | AUC(0-inf) | 0.716 µM·h |
